# Results from different studies.
# A part holds a random share of what one study measured. Positions count from the first letter of the parent shown.

# Study 1 — technique: RNA Bind-n-Seq; form: RNA; matrix: in vitro; concentration: not given; relative to: input RNA pool; reading: higher = stronger binding
# Target: RING finger protein unkempt homolog, zinc fingers 1-6, GST-SBP tag (UNK, Homo sapiens, UniProt Q9C0B0, residues 30-357)
# UniProt Q9C0B0, sequence (30-357, looked up): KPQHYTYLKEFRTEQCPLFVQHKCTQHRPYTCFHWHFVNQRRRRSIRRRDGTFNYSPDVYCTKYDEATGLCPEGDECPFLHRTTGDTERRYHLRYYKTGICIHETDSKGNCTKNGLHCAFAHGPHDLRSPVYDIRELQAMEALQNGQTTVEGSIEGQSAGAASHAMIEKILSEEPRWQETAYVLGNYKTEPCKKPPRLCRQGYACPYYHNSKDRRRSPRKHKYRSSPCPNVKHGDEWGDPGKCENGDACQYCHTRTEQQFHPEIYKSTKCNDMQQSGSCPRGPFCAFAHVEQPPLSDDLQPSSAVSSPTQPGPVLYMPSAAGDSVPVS
# Setting: RNA with constant flanks, human and mouse sites, ends assumed
# All sequences stand within: GGGAGUUCUACAGUCCGACGAUC … CAACAGAGGAUUGAGCAUCA
Sequence,bound/input enrichment [ratio]
UUGGACAGCGCCCCACAACAAAGAAUUAUCCUGCCCGAAAUGGUAGUCGUGCCAAGGCUGAGUAACCUUGUGUUAAAAGUAACCUGUGGCAGACUAGGUUUCCAGAAUUUCCUGGUUCUG,0.115
UUGAUCGAGUAAUGAUUAUCUAAGUAACUGUUGGGGACUGUGGAUAAAUUAGCAGGAGGGUAGUUUAUGAGAGCUGGCUUCAGGACGCUCUGUCCUCUGGAAGGAGUUUGUCUUCUGUGU,0.854
ACCCUGGACUGUGAGCCCAAGUGUGUGGAAGAGUUACCUGAGUGGAACUUUGAUGGCUCUAGUACCUUUCAGUCUGAAGGCUCCAACAGCGACAUGUACCUCCAUCCUGUUGCCAUGUUU,0.198
UGGACUACCAAGCAUGUAGCUGUGUGGCUGAAGGAUGAAGGCUUUUUUGAAUAUGUGGACAUUUUAUGCAAUAAGCACCGACUUGAUGGAAUCACAUUGCUAACAUUGACUGAAUAUGAU,0.235
UAUAAUGCCUUGGAAACAAACAUUAUUCCAUCAUUUGUGUUGAUGGAUAUCCAGGCUUCUACAGUGGUCACCUAUGUGUAUCAGCUAAUUGGAGAUGAUGUGAAAGUAGAACGAAUCGAA,0.114
GCUUUCAGCCCGUGUAAAUAUUUAAAUAAAACAGUAUUAACAUUUUUGUGCUGCUUCUCGUUAGGUUGUAGAUCUAGCCAUGCUCUGGCCGCCUCUGCCAUCCUGGAGGUAGUUUUCCUU,0.173
CCAGAAGGACAAGUUGUCUGUUUUGAUGCCAAGAUAAACUUUGAUGACAAUGCUGAGUUCCGACAAAAGGACAUAUUUGCUAUGGACGACAAAUCCGAGAAUGAGCCCAUUGAAAAUGAA,0.203
GGACAUGCCAGCGAGUGUGUAAAGAACGAGUUUGACAAACUCAUGUGCAACUGCAAACAUAACACAUACGGAGUUGACUGUGAAAAGUGCCUGCCUUUCUUCAAUGACCGGCCGUGGAGG,0.171
UUUGCUGAACUGGAUAAAGUAAUGGGCCCUCUCAUCUUUAAUGCAAGCAUCAUGACAGAUCUAGUUCGUUAUACCCGGCAGGGACUGCACUGGCUUCGCCAGGAUGCCAAGUUGAUAUCU,0.119
GUCCCACCAGCACUCGGCAGUAAUCUGGCUGACAAUGUCAUGAUUACUGUAGAUAUUAUUCCUUCUGGUUGGAAUUCAACUGAUGGGAAAAAUGAUAAAGCUAAAAGUGCACCUUCAAGA,0.128
GUUCCAGGAGAGACUCAAGGUGACAGUUACUUUACUGGAAAGAAAACUAUUGAAACAGUGAAAGCAGCUGAGAGGAUUAUGGAGGCUAUUGAGUUGUACCGAGAAGAAACUGCAAAAAUG,0.269

# Study 2 — target: CCNB2, cyclin fold, Cln2 fusion (human); technique: yeast growth competition, sequencing; matrix: yeast; setting: weak parent motif; relative to: not given; reading: higher = stronger binding
# Starting sequence: CDKN1A docking peptide (human); SKACRRLFGPVDS; partner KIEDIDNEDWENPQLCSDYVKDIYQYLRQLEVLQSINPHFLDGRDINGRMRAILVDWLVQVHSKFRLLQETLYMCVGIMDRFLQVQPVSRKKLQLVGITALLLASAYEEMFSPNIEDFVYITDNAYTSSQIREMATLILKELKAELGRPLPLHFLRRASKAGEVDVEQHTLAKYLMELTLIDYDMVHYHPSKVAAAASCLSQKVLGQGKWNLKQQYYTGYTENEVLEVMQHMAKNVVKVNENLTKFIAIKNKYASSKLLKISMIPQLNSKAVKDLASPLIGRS
Change,normalised enrichment score
SKACRRLFGPVAS [D12A],0.236
SCACRRLFGPVDS [K2C],-0.113
SDACRRLFGPVDS [K2D],0.419
SKACRRLFGPTDS [V11T],0.494
SKACKRLFGPVDS [R5K],0.368
SKACRRDFGPVDS [L7D],0.137
SKALRRLFGPVDS [C4L],0.219
SKACRRLFGPEDS [V11E],0.0527
SKACRRCFGPVDS [L7C],0.263
SKACRRLFLPVDS [G9L],0.528
SKACRRLMGPVDS [F8M],0.241
SKWCRRLFGPVDS [A3W],0.69
SKASRRLFGPVDS [C4S],0.141
SKACARLFGPVDS [R5A],-0.192
SKAFRRLFGPVDS [C4F],0.0712
SKACRRLFGPRDS [V11R],0.806
SKAPRRLFGPVDS [C4P],0.106
SKACRRLIGPVDS [F8I],0.156
SKNCRRLFGPVDS [A3N],-0.293
SKACIRLFGPVDS [R5I],-0.00698
SKYCRRLFGPVDS [A3Y],0.38
SKACRRLFGPNDS [V11N],0.0359
SKACRRLFGDVDS [P10D],0.165
SKACRRPFGPVDS [L7P],0.383
SKACRRVFGPVDS [L7V],0.913

# Study 3 — technique: RNA Bind-n-Seq; form: RNA; matrix: in vitro; concentration: 1 µM; setting: whole 134-nt RNA, ends assumed; with: 150 mM KCl; relative to: input library; reading: higher = stronger binding
# Target: Ras GTPase-activating protein-binding protein 1, C-terminal RGG region (G3BP1, Homo sapiens, UniProt Q13283)
# UniProt Q13283, sequence (whole entry, looked up): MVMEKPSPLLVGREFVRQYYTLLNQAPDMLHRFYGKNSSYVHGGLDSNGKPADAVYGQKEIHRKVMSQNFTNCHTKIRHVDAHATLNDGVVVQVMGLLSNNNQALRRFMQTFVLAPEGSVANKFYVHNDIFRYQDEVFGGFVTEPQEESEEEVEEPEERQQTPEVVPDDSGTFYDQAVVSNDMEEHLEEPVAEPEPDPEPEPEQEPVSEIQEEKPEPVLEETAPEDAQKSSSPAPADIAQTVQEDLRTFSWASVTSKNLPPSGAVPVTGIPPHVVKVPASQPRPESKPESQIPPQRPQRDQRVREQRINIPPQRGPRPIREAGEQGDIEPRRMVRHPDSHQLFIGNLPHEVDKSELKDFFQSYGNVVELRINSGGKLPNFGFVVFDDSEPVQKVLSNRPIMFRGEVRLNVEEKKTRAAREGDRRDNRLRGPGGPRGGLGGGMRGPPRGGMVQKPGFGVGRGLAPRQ
# All sequences stand within: GGGAGUUCUACAGUCCGACGAUC … UGGAAUUCUCGGGUGUCAAGG
Sequence,log2 enrichment
CCUCAAGUCCUGUGCUACACAUCGUAUGUACCGAAUCGGGAGGAGGGGAGGGAAAGUAUUAUGUUACGCCGUUCGGAUCUGCACUUCCAG,0.9
AGGAAAAUGUUUAUAGGAGGCCUUAGCUGGGACACUACAAAGAAAGAUCUGAAGGACUACUUUUCCAAAUUUGGUGAAGUUGUAGACUGC,-0.851
UCAUGGCUAUCAUUAGCCACAGGUACUGCUGAUUAUAAGGCCAGUAAAAUUUUAGUACCUGGAGGUUUGACUCUAAUUUUUGCACUGAUG,-1.89
CAAGUCCUGUGCUACACAUCGUAUGUACCGAAUCGGUUUUUUUGGAAAGGAAAGGAAAGUAUUAUGUUACGCCGUUCGGAUCUGCACUUC,-1.84
CUCAAGUCCUGUGCUACACAUCGUAUGUACCGAAUCGGUUUGGUUUGGAAAGGAAAGUAUUAUGUUACGCCGUUCGGAUCUGCACUUCCA,-1.12
UCCUCAAGUCCUGUGCUACACAUCGUAUGUACCGAAUCGGGGUGGGUGGUGGAAAGUAUUAUGUUACGCCGUUCGGAUCUGCACUUCCAG,0.313
ACCAAGCAGGUGGGCAUCUUUGGGAAGUGGGGCAAGGGGGGGAUAGGGAGGGGGGUAACACUUUGGGAACAGGUGGUCCCAGGUCGUUUC,-1.08
UUACACCAAUGAGAAGCUGCAGCAGCUCUUCAACCACACCAUGUUCAUCCUGGAGCAGGAGGAGUACCAGCGCGAGGGCAUCGAGUGGAA,-1.05
GUCCUGUGCUACACAUCGUAUGUACCGAAUCGGAAAAAAAGGAAAAAGGUUUUUUUGGAAAGUAUUAUGUUACGCCGUUCGGAUCUGCAC,-1.85
CCUCAAGUCCUGUGCUACACAUCGUAUGUACCGAAUCGGGGCGGCGGCGGGGAAAGUAUUAUGUUACGCCGUUCGGAUCUGCACUUCCAG,-1.08

# Study 4 — target: UBE2H UBC core domain (UniProt P62256); technique: yeast two-hybrid; matrix: yeast; setting: mostly zero background; relative to: not given; reading: higher = stronger interaction
# UniProt P62256, sequence (whole entry, looked up): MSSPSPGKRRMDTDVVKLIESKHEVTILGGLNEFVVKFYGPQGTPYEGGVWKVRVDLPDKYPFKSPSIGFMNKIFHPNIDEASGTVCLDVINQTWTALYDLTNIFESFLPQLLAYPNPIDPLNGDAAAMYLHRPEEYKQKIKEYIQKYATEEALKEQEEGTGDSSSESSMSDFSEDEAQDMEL
# B1: UBE4B RING domain (UniProt O95155); chain KNARAEIDYSDAPDEFRDPLMDTLMTDPVRLPSGTIMDRSIILRHLLNSPTDPFNRQTLTESMLEPVPELKEQIQAWMREKQNSDH
# B2: RNF115 RING domain (UniProt Q9Y4L5); chain TQEQVDMGLECPVCKEDYTVEEEVRQLPCNHFFHSSCIVPWLELHDTCPVCRKSLNGEDSTR
# B3: RFPL3 RING domain (UniProt O75679); chain MAALFQEASSCPVCSDYLEKPMSLECGCTVCLKCINSLQKEPHGEDLLCCCCSMVSQRNKIRP
# B4: TRIM32 RING domain (UniProt Q13049); chain NLDALREVLECPICMESFTEEQLRPKLLHCGHTICRQCLEKLLASSINGVRCPFCSKITRITSLTQ
# B5: NHLRC1 RING domain (UniProt Q6VVB1); chain MREAEISLLECKVCFEKFGHRQQRRPRNLSCGHVVCLACVAALAHPRTLALECPFCRRACRGCDTSD
# B6: MDM2 RING domain (UniProt Q00987); chain TQDKEESVESSLPLNAIEPCVICQGRPKNGCIVHGKTGHLMACFTCAKKLKKRNKPCPVCRQPIQMIVLTYFP
# B7: CBLL1 RING domain (UniProt Q75N03); chain GEKDDTPVHFCDKCGLPIKIYGRMIPCKHVFCYDCAILHEKKGDKMCPGCSDPVQRIEQCT
Sequence,lacZ reporter activity
MEEMEEELKCPVCGSFYREPIILPCSHNLCQACARNILVQTPESESPQSHRAAGSGVSDY (TRIM9 RING domain (UniProt Q9C026)),0
EDVLSKDAGECAICLEELQQGDTIARLPCLCIYHKGCIDEWFEVNRSCPEHPSD (ZNRF2 RING domain (UniProt Q8NHG8)),0
B1 (UBE4B RING domain),0
B2 (RNF115 RING domain),0
B3 (RFPL3 RING domain),0
B4 (TRIM32 RING domain),0
KITELNPHLMCALCGGYFIDATTIVECLHSFCKTCIVRYLETNKYCPMCDVQVHKTRPLL (PCGF2 RING domain (UniProt P35227)),0
B5 (NHLRC1 RING domain),0
B6 (MDM2 RING domain),0
B7 (CBLL1 RING domain),0

# Study 5 — technique: aptamer microarray, sandwich; form: DNA with 2'F-ANA; matrix: in vitro; concentration: 200 nM; with: Cy3 exosite-II aptamer, 400 nM; reading: higher = stronger binding; sequence: GGTTGGTGTGGTTGG
# Target: Prothrombin, mature alpha-thrombin (F2, Homo sapiens, UniProt P00734)
# Setting: whole 15-mer aptamer, many near background
Modification,mean fluorescence intensity
2'F-ANA at 1 4 7 9 10 11 12 14 15,48 a.u.
2'F-ANA at 1 2 3 4 7 9 13 14,60 a.u.
2'F-ANA at 3 5 6 7 9 11 12 14,88.3 a.u.
2'F-ANA at 1 3 4 7 10 11 12,92 a.u.
2'F-ANA at 1 2 5 6 8 9 10 12 14 15,59.7 a.u.
2'F-ANA at 4 9 10 11 12 13 14 15,62.1 a.u.
2'F-ANA at 1 2 6 7 8 9 10 14 15,184 a.u.
2'F-ANA at 2 10 12 13,179 a.u.
2'F-ANA at 1 3 6 7 8 13,255 a.u.
2'F-ANA at 4 5 6 7 9 11 12 13 15,68.7 a.u.
2'F-ANA at 1 3 5 6 7 8 9 11 12 13 14,50.7 a.u.
2'F-ANA at 2 3 4 5 6 7 8 15,110 a.u.
2'F-ANA at 7 10 15,206 a.u.
2'F-ANA at 1 2 7 8 9 10 13 14 15,63.5 a.u.
2'F-ANA at 2 3 6 7 9 10 11 12 14,240 a.u.
2'F-ANA at 2 3 5 11 12 13,150 a.u.
2'F-ANA at 1 6 7 9 10 11 12 13 14 15,47.6 a.u.
2'F-ANA at 1 7 8 9 10 12 13 14,61.1 a.u.
2'F-ANA at 1 4 5 6 7 12 15,113 a.u.

# Some of these lines once more (study 4):
Sequence,lacZ reporter activity
B2 (RNF115 RING domain),0
KITELNPHLMCALCGGYFIDATTIVECLHSFCKTCIVRYLETNKYCPMCDVQVHKTRPLL (PCGF2 RING domain (UniProt P35227)),0
B7 (CBLL1 RING domain),0
MEEMEEELKCPVCGSFYREPIILPCSHNLCQACARNILVQTPESESPQSHRAAGSGVSDY (TRIM9 RING domain (UniProt Q9C026)),0
B6 (MDM2 RING domain),0
B4 (TRIM32 RING domain),0
